Measurements from different studies.
Each line is one published result; not all experiments were run side by side. Numbers after ± are the reported error. In brackets after ≈: the same amount, converted by molar mass.

Structure (SMILES) | test | test system | conditions | how to read | measurement | value
CN(C)C(CNC(=O)Nc1cc(C(F)(F)F)ccc1N1CCOCC1)c1ccncc1 (stereo not drawn) | – | mouse, serum | intraperitoneal, 180 mg/kg single dose | – | serum GGT | < 3 U/L
O=c1c2cc(Cl)ccc2sc2c(NCc3ccccc3)nc3ccccc3c12 | – | BALB/c nude mice | i.p., 30 mg/kg | – | body weight | 19.5 ± 1.24 g
CC[C@H](C)[C@H](NC(=O)[C@@H](CCCCN)NC(=O)[C@@H](CCCCN)NC(=O)[C@H](Cc1ccccc1)NC(=O)[C@H](CC(C)C)NC(=O)[C@@H](CCCCN)NC(=O)[C@H](Cc1c[nH]c2ccccc12)NC(=O)[C@H](CCCCN)NC(C)=O)C(=O)NCC(=O)N[C@@H](C)C(=O)N[C@H](C(=O)N[C@@H](CC(C)C)C(=O)N[C@H](CCCCN)C(=O)N[C@H](CCCCN)C(=O)N[C@@H](CC(C)C)C(N)=O)C(C)C | – | human red blood cells | up to 64 µM, 1 h, 5% red blood cells | – | hemolysis | < 5%
Nc1nc(Nc2ccc(Cl)cc2)nn1S(=O)(=O)c1ccc2ccccc2c1 | – | male BALB/c mice | oral, 14 (unit not given) | – | LD50 | 3930 mg/kg
CC[C@H](C)[C@@H]1NC(=O)[C@H](CCCCN)NC(=O)[C@H](CCCCN)NC(=O)[C@H](Cc2ccc(O)cc2)NC(=O)[C@H](CC(C)C)NC(=O)[C@@H]2CCCN2C(=O)[C@H](C)NC(=O)CNC(=O)CNC(=O)[C@H](CO)NC(=O)CNC(=O)CNC(=O)[C@H](CO)NC(=O)[C@H](CCCCN)NC(=O)[C@H](CC(C)C)NC(=O)[C@H](CC(C)C)NC(=O)[C@H](CCCCN)NC(=O)[C@H](CCCNC(=N)N)NC(=O)[C@H]([C@@H](C)CC)NC(=O)[C@H]([C@@H](C)CC)NC(=O)[C@H](CCCCN)NC(=O)[C@H](CCCCN)NC(=O)[C@H](Cc2ccc(O)cc2)NC(=O)[C@H](CC(C)C)NC(=O)[C@@H]2CCCN2C(=O)CNC(=O)CNC(=O)[C@@H](NC(=O)CN)CSSC[C@@H](C(N)=O)NC(=O)[C@H](CC(C)C)NC(=O)[C@H](CCCCN)NC(=O)[C@H](CCCNC(=N)N)NC(=O)[C@H]([C@@H](C)CC)NC1=O | hemolysis | uninfected human erythrocytes | 1 h | – | HC10 | 6.3 ± 1 µM
C=C1C(=O)OC2CC(C)C3C=CC(=O)C3(C)C(OC(C)=O)C12 (stereo not drawn) | propidium iodide flow cytometry | primary splenocytes, BALB/c mouse | 48 h, 10% fetal calf serum | – | CC50 | 0.53 ± 0.2 µg/mL (≈ 1.74 µM)
N=C(N)NCc1ccc(C(=O)NCCCC[C@H](NC(=O)N[C@@H](CCC(=O)O)C(=O)O)C(=O)O)cc1[211At] | – | SCID mouse, PC-3 xenografts, lungs | 4 h | – | tissue uptake | 1.69 ± 0.67 %ID/g
CSCC[C@@H]1NC(=O)[C@@H]2CSSC[C@H](NC(=O)[C@H](CO)NC(=O)[C@H](C)N)C(=O)N[C@@H](CCCNC(=N)N)C(=O)N[C@@H]([C@@H](C)O)C(=O)N3CCC[C@H]3C(=O)N[C@@H](CCCCN)C(=O)N[C@@H](CC(=O)O)C(=O)N[C@H]3CSSC[C@H](NC(=O)[C@H](CCCCN)NC(=O)[C@H](CCCNC(=N)N)NC(=O)[C@H](CC(N)=O)NC1=O)C(=O)N[C@@H](CCCCN)C(=O)N[C@H]1CSSC[C@H](NC(=O)[C@@H]4CCCN4C(=O)[C@H](CC(=O)O)NC(=O)[C@H](C)NC3=O)C(=O)N[C@@H](C)C(=O)N[C@@H](CCCCN)C(=O)N[C@@H](CCC(=O)O)C(=O)N[C@@H]([C@@H](C)O)C(=O)NCC(=O)N[C@@H](CSSC[C@@H](C(N)=O)NC(=O)[C@H](CCCNC(=N)N)NC(=O)[C@H](CC(N)=O)NC1=O)C(=O)N1CCC[C@H]1C(=O)N[C@@H](Cc1ccc(O)cc1)C(=O)NCC(=O)N[C@@H](CCCCN)C(=O)N2 | – | DA rat pristane-induced arthritis, serum | subcutaneous, 0.1 mg/kg single dose at onset, 21 days | – | CO2 | 19 mmol/L
CC1COCCN1c1nc(NCc2cccnc2C(F)(F)F)c2cccnc2n1 (stereo not drawn) | – | Sprague Dawley rat, both sexes | oral, 7 days | – | NOAEL | > 300 mg/kg
C=Cc1cc(O)cc2nc(-c3ccc(O)c([76Br])c3)oc12 | – | female C57BL/6 mouse, spleen | 3 h, high dose, together with: estradiol 20 µg blocking | – | tissue uptake | 0.05 ± 0.02 %ID/g
CCNc1cc2[o+]c3cc(NCC)c(C)cc3c(-c3ccccc3C(=O)OCCOCC[18F])c2cc1C | – | rat | 60 min | relative to: heart over blood | tissue uptake ratio | 18.9
CC[C@H](C)[C@H](NC(=O)[C@H](CC(=O)O)NC(=O)[C@H](CO)NC(=O)[C@H](CCC(N)=O)NC(=O)[C@H](C)NC(=O)[C@H](CC(=O)O)NC(=O)[C@H](CCC(=O)O)NC(=O)[C@H](Cc1c[nH]cn1)NC(=O)[C@H](Cc1ccc(O)cc1)NC(=O)[C@H](C)NC(=O)[C@H](CC(=O)O)NC(=O)[C@H](CCC(=O)O)NC(=O)[C@H](Cc1c[nH]cn1)NC(=O)[C@H](Cc1ccc(O)cc1)NC(=O)[C@H](C)NC(=O)[C@H](CC(=O)O)NC(=O)[C@H](CCC(=O)O)NC(=O)[C@H](Cc1c[nH]cn1)NC(=O)[C@H](Cc1ccc(O)cc1)NC(=O)[C@H](C)NC(=O)[C@H](CC(=O)O)NC(=O)[C@H](CCC(=O)O)NC(=O)[C@H](Cc1c[nH]cn1)NC(=O)[C@H](Cc1ccc(O)cc1)NC(=O)[C@H](C)NC(=O)[C@H](CC(=O)O)NC(=O)[C@H](CCC(=O)O)NC(=O)[C@H](Cc1c[nH]cn1)NC(=O)[C@@H](N)Cc1ccc(O)cc1)C(=O)N[C@H](C(=O)N[C@@H](C)C(=O)N[C@@H](Cc1c[nH]cn1)C(=O)N[C@@H](CC(C)C)C(=O)N[C@@H](CC(C)C)C(=O)O)C(C)C | – | normal mouse | dose not given | – | RDW | 24.6 ± 3.1%
CCCCCCCC(=O)OC[C@H](NC(=O)[C@H](CO)NC(=O)CN)C(=O)N[C@@H](Cc1ccccc1)C(=O)N[C@@H](CC(C)C)C(=O)N[C@@H](CO)C(=O)N1CCC[C@H]1C(=O)N[C@@H](CCC(=O)O)C(=O)N[C@@H](Cc1cnc[nH]1)C(=O)N[C@@H](CCC(N)=O)C(=O)N[C@@H](CCCNC(=N)N)C(=O)N[C@H](C(=O)N[C@@H](CCC(N)=O)C(=O)N[C@@H](CCC(N)=O)C(=O)N[C@@H](CCCNC(=N)N)C(=O)N[C@@H](CCCCN)C(=O)N[C@@H](CCC(=O)O)C(=O)N[C@@H](CO)C(=O)N[C@@H](CCCCN)C(=O)N[C@@H](CCCCN)C(=O)N1CCC[C@H]1C(=O)N1CCC[C@H]1C(=O)N[C@@H](C)C(=O)N[C@@H](CCCCN)C(=O)N[C@@H](CC(C)C)C(=O)N[C@@H](CCC(N)=O)C(=O)N1CCC[C@H]1C(=O)N[C@@H](CCCNC(=N)N)C(=O)O)C(C)C | – | human, plasma | intravenous infusion, 3 µg/kg/h | relative to: 1 µg/kg/h dose | AUC fold change | 4 fold
CC[C@H](C)[C@@H]1NC(=O)[C@H](CCCNC(=N)N)NC(=O)[C@H](CC(=O)O)NC(=O)[C@H](CC(C)C)NC(=O)[C@H](CCCCN)NC(=O)[C@H](CC(C)C)NC(=O)CNC(=O)[C@H](Cc2ccccc2)NC(=O)[C@@H](NC(=O)CNC(=O)[C@H](CCCCN)NC(=O)[C@H](CO)NC(=O)[C@H](CC(C)C)NC(=O)CNC(=O)[C@H](CCCCN)NC(=O)[C@H](CCCCN)NC(=O)[C@H](CCC(N)=O)NC(=O)[C@H](C)NC(=O)CNC(=O)[C@H](CCCCN)NC(=O)[C@H](Cc2ccc(O)cc2)NC(=O)[C@H](CCCCN)NC(=O)[C@H](CCCNC(=N)N)NC(=O)[C@H](C)NC(=O)[C@H](CCC(N)=O)NC(=O)[C@@H]2CCCN2C(=O)[C@H](Cc2c[nH]cn2)NC(=O)[C@H](CCC(=O)O)NC(=O)[C@H](CCC(N)=O)NC(=O)[C@@H](N)CC(C)C)CSSC[C@@H](C(=O)O)NC(=O)CNC(=O)[C@H](CC(C)C)NC(=O)CNC(=O)[C@H](CO)NC(=O)[C@H](CCSC)NC(=O)[C@H](CO)NC(=O)CNC1=O | – | FVB/nJ male mice, 3 weeks old | dose not given | relative to: untreated | body weight | no effect
C[C@]12CC[C@H](OCC[18F])C[C@H]1CC[C@@H]1[C@@H]2CC[C@]2(C)[C@@H](c3ccc(=O)oc3)CC[C@]12O | radio-HPLC | PBS | 10 h, pH 7.2, room temperature | – | radiochemical purity | 99%
CN(C(=O)Cc1ccc(Cl)c(Cl)c1)[C@@H](CN1CCCC1)c1ccccc1 | – | mouse liver microsomes | – | – | intrinsic clearance | 7.4 mL/min/g
Cc1ccc(/C=C/C(=O)O)cc1-c1cc2c(cc1C)C(C)(C)CCC2(C)C | – | Sprague-Dawley rat, male | oral, 100 mg/kg, 6 h, sesame oil vehicle | – | blood cholesterol | 83 ± 7.5 mg/dL
CC(CCC(=O)NCC(=O)O)C1CCC2C3C(O)CC4CC(OC5OC(C(=O)O)C(O)C(O)C5O)CCC4(C)C3CCC12C (stereo not drawn) | – | human, SLCO1B1 *14/*15, plasma | geometric mean, sex-adjusted | – | plasma concentration | 25.6 ng/mL
O=C(c1ccc(F)cc1)C1CCN(C2Cc3c(cccc3OCC[18F])CC2O)CC1 (single isomer, unassigned; (-)) | – | Sprague-Dawley rat, male, spleen | intravenous, dose not given, 60 min | – | tissue uptake | 0.505 ± 0.069 %ID/g
O=P1(NCCCl)NCCCO1 (stereo not drawn) | – | rat, plasma | intravenous, 10 mg/kg CP, together with: ketoconazole 10 mg/kg oral 50 min before | – | AUC(0-inf) | 593 ± 160 ng·h/mL
C[C@H](O)[C@@H](NC(=O)[C@H]1CCCN1C(=O)[C@@H](CCCCN)NC(=O)[C@@H](CO)NC(=O)[C@@H](Cc1ccc(O)cc1)NC(=O)[C@@H](CC(N)=O)NC(=O)CCOCCOCCOCCNC(=O)CN1CCN(CC(=O)O)CCN(CC(=O)O)CCN(CC(=O)O)CC1)C(=O)N[C@H](CC(=O)O)C(=O)N[C@H](CCCNC(=N)N)C(=O)N[C@H](CCC(N)=O)C(=O)N[C@H](Cc1ccc(O)cc1)C(=O)N[C@H](Cc1c[nH]cn1)C(=O)N[C@H](Cc1ccccc1)C(N)=O [copper-64 labelled] | item: red blood cells, haematocrit, platelets | C57BL/6J mice | intravenous, 3 mCi per mouse, days 1, 15, 30 | relative to: control | haematological parameters | no effect
COC(=O)C[C@](O)(CCCC(C)(C)OC(C)=O)C(=O)O[C@@H]1C(OC)=C[C@]23CCCN2CCc2cc4c(cc2[C@H]13)OCO4 | – | CD1 mouse, stomach | oral, 1 mg/kg, 8 h | – | tissue concentration | 39.6 ng/mL
CN[C@](C)(C[18F])C(=O)O | – | SCID mouse A549 xenograft, spleen | 120 min, post injection | – | tissue uptake | 4.3 ± 1 %ID/g
C[C@@H]1CC[C@H]2[C@@H](C)CO[C@@H]3O[C@@]4(C)CC[C@@H]1[C@]32OO4 | item: compound | rat, plasma | 50.0 ng/mL spiked, 24 h, autosampler at 4 °C | – | stability accuracy | 93.4%
CN(CC(=O)N(Cc1ccc(C2CCCCC2)cc1)c1ccc(C(=O)O)cc1)S(=O)(=O)c1c(F)c(F)c(F)c(F)c1F | – | CD-1 mouse | intravenous, 5 mg/kg, 15 min | – | plasma concentration | 4.43 ng/mL
[2H]C([2H])([2H])C([2H])([2H])C([2H])([2H])OC(C(=O)OC1CCNCC1)(c1ccccc1)c1ccccc1 | – | healthy Japanese male subjects, plasma | oral, 18 mg, day 1, mean | – | tmax | 4.9 h
CC(C)[C@H](NC(=O)CNC(=O)[C@H](CCC(N)=O)NC(=O)[C@H](C)N)C(=O)O | moderate intensity | human | 20 mg/kg, 3 days, thrice daily dosing | – | subjects with adverse events | 16.7%
CC[C@H](C)C(=O)N1CCC(NC(=O)Nc2ccc(OC(F)(F)F)c(F)c2)CC1 | – | healthy volunteers, both sexes | oral, 8 mg, fed state | – | subjects with urinary tract infection | 0%
CC(C)(CCCC/C=C/CCCCCC(C)(C)C(=O)O)C(=O)O | – | ICR mouse, plasma | intravenous, 10 mg/kg | – | clearance | 1.31 mL/min/kg
COc1cc2c(cc1OC)C(c1ccc(F)cc1F)N(CCCOc1ccc(CCC(=O)O)cc1)CC2 (stereo not drawn) | – | ICR mice, male and female | oral, 1 week | – | LD50 | > 2000 mg/kg

Some of these lines once more:
Structure (SMILES) | test | test system | conditions | how to read | measurement | value
O=C(c1ccc(F)cc1)C1CCN(C2Cc3c(cccc3OCC[18F])CC2O)CC1 (single isomer, unassigned; (-)) | – | Sprague-Dawley rat, male, spleen | intravenous, dose not given, 60 min | – | tissue uptake | 0.505 ± 0.069 %ID/g
C=Cc1cc(O)cc2nc(-c3ccc(O)c([76Br])c3)oc12 | – | female C57BL/6 mouse, spleen | 3 h, high dose, together with: estradiol 20 µg blocking | – | tissue uptake | 0.05 ± 0.02 %ID/g
